Measurements from different studies.
Compare with care: the assays were run in different laboratories. “And” joins repeats or separate records; there may be more than shown. ± marks the error that the study gave. In brackets after ≈: the same amount, converted by molar mass.

| Molecule | assay | test system | conditions | scale | endpoint | value |
| --- | --- | --- | --- | --- | --- | --- |
| CCCOc1ccc([C@H]2CNC(=O)N2c2ccc3[nH]cnc3c2)cc1 | – | human volunteers fasted, plasma | oral solution, 200 mg single dose, day 1, geometric mean | – | apparent terminal half-life | 3.16 h |
| CCCN1CC(c2ccc(S(C)(=O)=O)cc2)=C(c2ccc(C)cc2)C1=O | – | healthy Chinese subjects, elderly, plasma | oral, 100 mg single dose | relative to: non-elderly subjects | AUC(0-t) increase | 34% |
| C#Cc1c(F)ccc2cc(O)cc(-c3ncc4c(N5CC6CCC(C5)N6)nc(OC[C@@]56CCCN5C[C@H](F)C6)nc4c3F)c12 | – | female Balb/c nude mouse, tumour model | oral, 126 mg/kg twice daily of prodrug, 8 h after last dose | – | tumour concentration | 2440 ng/g |
| Oc1ccc(/C=C/c2ccc3ccccc3c2)cc1O | – | water | aggregation above range | – | linear absorbance range | ≤ 10 µM |
| CC(C)C[C@H](NC(=O)[C@H](CCCNC(=N)N)NC(=S)Nc1ccc(C[C@H]2CN(CC(=O)O)CCN(CC(=O)O)CCN2CC(=O)O)cc1)C(=O)N[C@@H](CC(N)=O)C(=O)N[C@H](C(=O)NCC(=O)NCC(=O)N[C@H](C(=O)N[C@@H](Cc1ccc(O)cc1)C(=O)N[C@@H](Cc1ccccc1)C(=O)N[C@@H](CC(C)C)C(=O)N[C@H](C(=O)N[C@H](C(=O)N[C@@H](CCCNC(=N)N)C(=O)N[C@@H](CCC(N)=O)C(=O)O)[C@@H](C)O)[C@@H](C)O)[C@@H](C)O)C(C)C [fluorine-18 labelled] | radio-HPLC | mouse (HepG2 tumour-bearing), kidney | intravenous, 5.55 MBq, 1 h | – | intact parent radiotracer | 54.9 ± 2.12% |
| Cc1nc2cccc(OCC(C)(C)C(=O)NC(C)C)c2c(N)c1C(=O)O | – | Sprague-Dawley rat (both sexes), plasma | dietary, 60 mg/kg/day, day 7 | – | Tmax | 3 h |
| CC1=C2C[C@H]3[C@@H](CC[C@@H]4C[C@H](NS(C)(=O)=O)CC[C@@]43C)[C@@H]2CC[C@@]2(C1)O[C@@H]1C[C@H](C)CN[C@H]1[C@H]2C | – | patients, plasma | oral, 180 mg daily, day 22, cycle 1 | – | AUC(0-24) | 12800 ng·h/mL |
| C[C@@H](O)[C@H]1C(=O)N2C(C(=O)O)=C(S[C@@H]3CN[C@H](C(=O)N(C)C)C3)[C@H](C)[C@H]12 | – | pig (Danish Landrace), plasma, free concentration | iv infusion, 1000 mg over 10 min, MIC 0.25 µg/mL, added: vancomycin co-administered | – | time above MIC | 372 min |
| Cn1c(-c2ccc(C(N)=O)cc2F)nnc1C(C)(C)Oc1c(F)cc(Cl)cc1F | – | young non-Japanese subjects, plasma | oral, 20 mg single dose, day 1 | – | AUC(0-inf) mean | 3010 ng·h/mL |
| NCCCC[C@@H]1NC(=O)[C@@H](Cc2c[nH]c3ccccc23)NC(=O)[C@H](c2ccccc2)NC(=O)[C@@H]2C[C@@H](OC(=O)NCCN)CN2C(=O)[C@H](Cc2ccccc2)NC(=O)[C@H](Cc2ccc(OCc3ccccc3)cc2)NC1=O | – | healthy human volunteers | subcutaneous, 200 µg, 2 h, post-prandial | – | blood glucose | 127 mg/dL |
| O=C(N[C@@H](Cn1ccnc1)c1ccc(Cl)cc1Cl)c1ccc(-c2nnc(-c3ccc(F)c(F)c3)o2)cc1 | – | Balb/c mouse, brain | oral, 25 mg/kg, 4 h | – | brain concentration | 8000 ± 4000 nM |
| CNC(=O)c1ccc(-c2cnc3ncc(Cc4ccc5ncccc5c4)n3n2)cc1F | – | human, moderate hepatic impairment (Child-Pugh B), plasma | oral, 200 mg single dose | – | half-life (mean) | 7.62 h |
| C[C@]12CC[C@@H]3c4ccc(O)cc4CC[C@H]3[C@@H]1C[C@@H](O)[C@@H]2O | GC-MS | breast cancer women on NSAI, serum | vaginal, 0.03 mg, 1 h, day 0 | – | mean serum concentration | 0.011 ng/mL |
| CN(C)Cc1c(C(=O)NCCOc2ccc(C(=O)NO)cc2)oc2ccccc12 | – | human, plasma | oral, 80 mg, single dose on day -3 | – | half-life (median) | 4.81 h |
| Cc1ccc(N2CCN(CC(O)COc3ccccc3C(=O)CCc3ccccc3)CC2)cc1 (stereo not shown) | metabolic stability | human, liver microsomes | 20 µM, pH 7.4 | – | scaled CLint | 37.6 mL/min/kg |
| Cc1cc(Nc2ncc(Cl)c(Nc3ccccc3S(=O)(=O)C(C)C)n2)c(OC(C)C)cc1C1CCNCC1 | measured: unbound drug | human, plasma | oral, 750 mg/day | – | Css,min | 20 nM and 14 nM |
| CN1CC[C@@H](NC(=O)Nc2ccc(C#N)cc2)C[C@@H]1c1nc2ccccc2[nH]1 | – | severe hepatic impairment, plasma | oral, 100 mg single dose, fasted, arithmetic mean | – | AUC(0-inf), unbound | 1060 ± 384 ng·h/mL |
| O=c1cc(-c2ccc(O)c(-c3c(O)cc(O)c4c(=O)cc(-c5ccc(O)cc5)oc34)c2)oc2cc(O)cc(O)c12 | UV-vis pH titration | ethanol-water, 0.1 M NaCl | 25 µM, 25 °C, first pKa, keto protonation | – | pKa | 1.42 |
| O=C(O)COC[C@H]1CC[C@H](COC(=O)N(c2ccccc2)c2ccc(Cl)cc2)CC1 | – | human | oral, 50 µg once daily, steady state | – | effective half-life | 18.4 h |

| Molecule | assay | test system | conditions | scale | endpoint | value |
| --- | --- | --- | --- | --- | --- | --- |
| CS/C(S)=N/CCCC[S+](C)[O-] (racemic) | RT-PCR, measured: Cyp3a23/1 | rat, mammary gland | oral gavage, 200 mg/kg, dosed for four days | relative to: vehicle | mRNA fold change | 0.013 |
| COc1ccc(C(=O)CSc2nc(C)cc(C)c2C#N)cc1 | metabolic stability | human, liver microsomes | 0.5 µM, pH 7.4 | – | microsomal CLint | 438 µL/min/mg |
| O=C1Nc2c(C(=O)O)ccnc2N(C2CC2)c2ncccc21 | – | olive baboon (Papio anubis), non-pregnant, serum | oral, 5 mg/kg of nevirapine, solution, single dose | – | AUC(0-8 h) | 526 ± 6.59 ng·h/mL |
| COc1cc2c(cc1OC)CN(CCc1ccc(NC(=O)c3cccc4c(=O)c5cccc(OC)c5[nH]c34)cc1)CC2 | – | Sprague Dawley rat | intravenous infusion, dose not given, 4 h | relative to: infusion over published oral doses | plasma exposure ratio | 10 |
| CC(C)=CCC[C@](C)(O[C@@H]1O[C@H](CO[C@@H]2O[C@H](CO)[C@@H](O)[C@H](O)[C@H]2O)[C@@H](O)[C@H](O)[C@H]1O)[C@H]1CC[C@]2(C)[C@@H]1[C@H](O)C[C@@H]1[C@@]3(C)CC[C@H](O[C@@H]4O[C@H](CO)[C@@H](O)[C@H](O)[C@H]4O[C@@H]4O[C@H](CO)[C@@H](O)[C@H](O)[C@H]4O)C(C)(C)[C@@H]3CC[C@]12C | – | Sprague Dawley rat, male, plasma | oral, 86 mg/kg, in white ginseng extract | – | CL/F | 5 ± 1.33 mL/min/kg |
| O=C(c1nc2n(n1)[C@H](c1ccccc1)C[C@@H]2F)C1CC1 | – | human, plasma | oral, 75 mg, 24 h, single dose, fasted, healthy volunteers | – | concentration | 199 ng/mL |
| COc1cc(C(=O)N2CCC3(CC2)CC(=O)c2c(cnn2C(C)C)C3)cc(-c2ccc(C(=O)O)cc2)n1 | measured: GGT | human | 15 mg twice daily, 7 days | – | liver enzyme elevation | 2.8 × ULN |
| [2H]C([2H])([2H])Oc1cc2c(cc1OC([2H])([2H])[2H])C1CC(=O)C(CC(C)C)CN1CC2 (stereo not shown) | measured: deuterated β-HTBZ | healthy human volunteers, plasma | oral, 24 mg single dose, standard meal | – | dose-normalized AUC(0-inf) | 6 ng·h/mL |
| CC1(C)C(=CC=C2CCCC(C=CC3=[N+](CCCCS(=O)(=O)[O-])c4ccccc4C3(C)C)=C2Cl)N(CCCCCC(=O)O)c2ccccc21 | NIR fluorescence imaging | nude mouse, MCF7 xenograft | 17 nmol/mouse, 8 d | relative to: Cy7 | tumour fluorescence per volume | ~2 fold |
| COc1ccc2[nH]c([S+]([O-])Cc3ncc(C)c(OC)c3C)nc2c1 (stereo not shown) | – | healthy Chinese, CYP2C19 intermediate metabolizers, plasma | oral, 20 mg single dose | – | AUC(0-inf) | 813 ± 523 ng·h/mL |
| CC(C)(O)c1ccccc1CC[C@@H](SCC1(CC(=O)O)CC1)c1cccc(/C=C/c2ccc3ccc(Cl)cc3n2)c1 | rosiglitazone metabolism, inhibitor | human liver microsomes | 0.02 µM, added: rosiglitazone 10 µM | – | inhibition | 49% |
| Cn1cc(-c2ccc3nnc(Sc4ccc5ncccc5c4)n3n2)cn1 | – | CD-1 mouse male, hepatic S9 | 1 µM, pH 7.4, added: without NADPH | – | CLint | 24.4 ± 9.31 mL/min/kg |
| des-acyl ghrelin (human) | multiple-time regression | Ghsr knockout mice, whole brain | intravenous, dose not given | – | initial brain distribution volume | 1.55 ± 0.67 µL/g |
| CC[C@H](C)[C@H](NC(=O)[C@H](CCSC)NC(=O)[C@H](CCCNC(=N)N)NC(=O)[C@H](Cc1ccc(O)cc1)NC(=O)[C@H](C)NC(=O)[C@H](CCC(N)=O)NC(=O)CNC(=O)[C@H](CCCCN)NC(=O)[C@@H](N)CO)C(=O)O | – | male ddY mouse, whole brain | intranasal, 1 mg, 30 min | relative to: intraperitoneal | brain concentration increase | 1470% |
| CC(C)c1nc(CN(C)C(=O)N[C@H](C(=O)N[C@@H](Cc2ccccc2)C[C@H](O)[C@H](Cc2ccccc2)NC(=O)OCc2cncs2)C(C)C)cs1 | – | healthy men, plasma | 600 mg single dose, added: amenamevir 1200 mg | – | AUC(0-t) arithmetic mean | 78100 ng·h/mL |
| C[C@](N)(Cc1ccc(O)c(O)c1)C(=O)O | static gravimetric method | supercritical CO2, 851.7 kg/m3 | 5 h, 323 K, pressure 27 MPa | – | solubility | 318 µg/mL (≈ 1510 µM) |
| CNc1[nH]c(=O)n(O)c(=O)c1C(=O)NCc1ccccc1 | metabolic stability | human, liver microsomes | – | – | microsomal CLint | 51 µL/min/mg |
| O=C(/C=C/c1ccc(O)c2c1[C@H](C(=O)O)[C@@H](c1ccc(O)c(O)c1)O2)O[C@H](Cc1ccc(O)c(O)c1)C(=O)O | UPLC-MS/MS | Wistar rat, microcirculation dysfunction model, plasma | oral, 100 mg/kg Salvia miltiorrhiza stem-leaf extract FT | – | CL/F | 209 ± 132 mL/min/kg |

Excerpt of the above:
| Molecule | assay | test system | conditions | scale | endpoint | value |
| --- | --- | --- | --- | --- | --- | --- |
| O=C(N[C@@H](Cn1ccnc1)c1ccc(Cl)cc1Cl)c1ccc(-c2nnc(-c3ccc(F)c(F)c3)o2)cc1 | – | Balb/c mouse, brain | oral, 25 mg/kg, 4 h | – | brain concentration | 8000 ± 4000 nM |
| CNC(=O)c1ccc(-c2cnc3ncc(Cc4ccc5ncccc5c4)n3n2)cc1F | – | human, moderate hepatic impairment (Child-Pugh B), plasma | oral, 200 mg single dose | – | half-life (mean) | 7.62 h |
